Results gathered from unrelated publications.
A part holds a random share of what one study measured.

Sample 1 — method: protein-binding microarray; form: double-stranded DNA, one strand shown; sample: in vitro; tested at: 2200 nM top; notes: 60-bp whole probe; with: salmon DNA 0.4 mg/ml; baseline: random background probes; direction: higher = stronger binding; endpoint: fitted relative affinity; all sequences stand within: GCCTAGCAC … GTCTTGATTCGCTTGACGCTGCTG
Target: Interferon regulatory factor 7, full length, phosphomimetic (IRF7, Homo sapiens, UniProt Q92985, residues 1-503, S471D/S472D/S475D/S476D/S477D/S483D/S484D/S487D)
Target sequence (chain): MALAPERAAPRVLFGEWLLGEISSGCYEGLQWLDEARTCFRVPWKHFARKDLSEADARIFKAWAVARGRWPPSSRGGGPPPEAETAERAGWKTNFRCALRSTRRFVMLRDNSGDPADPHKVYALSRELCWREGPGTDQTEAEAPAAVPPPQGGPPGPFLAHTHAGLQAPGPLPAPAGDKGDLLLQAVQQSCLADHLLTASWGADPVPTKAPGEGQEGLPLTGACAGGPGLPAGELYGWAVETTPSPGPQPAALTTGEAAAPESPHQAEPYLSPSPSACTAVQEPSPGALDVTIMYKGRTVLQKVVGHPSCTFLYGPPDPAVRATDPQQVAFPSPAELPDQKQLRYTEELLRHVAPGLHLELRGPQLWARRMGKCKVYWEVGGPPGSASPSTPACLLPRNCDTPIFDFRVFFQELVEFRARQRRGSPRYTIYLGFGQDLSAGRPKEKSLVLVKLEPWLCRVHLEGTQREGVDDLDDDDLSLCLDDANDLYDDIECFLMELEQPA
GGCACCCAAGCTCTTGTTTGGTGCTAG: -0.443 z-score
GACGGTCTCGGACTGGGGAAGTGCTAG: -0.533 z-score
TTAGAACTAGGGACTGGATTAGTGCTA: -0.952 z-score
TCAGGTATCGGACTGGGTTAGTGCTAG: 0.483 z-score
CCCACCCTCAGGGAGCCTGTGTGCTAG: -0.85 z-score
TTAGGACTGCTATTCCTTTAGTGCTAG: 0.433 z-score
TTAGGTATCCTTATCCTATAGTGCTAG: 0.88 z-score
CAGGGTTTCACTTTAAATTAGTGCTAG: 2.76 z-score
AACTGTCTGCCTTTCAATCCGTGCTAG: 1.26 z-score
AGATACCTTTAACAGTGCCTGTGCTAG: 0.182 z-score
AGTCTTCTCCTCTAGGTTCTCGTGCTA: 1.11 z-score
AGGAATTTCCCACTTTCAGTGTGCTAG: 2.09 z-score
TTAGATTTCGGGTTACGATTAGTGCTA: 5.73 z-score
GACGGACTGCTGCTCCTGACGTGCTAG: 0.285 z-score
GACGGTTCCGGTTTCGGGCCGTGCTAG: 4.64 z-score
TTAGATATCGGGTTTCAATTAGTGCTA: 0.708 z-score

Sample 2 — method: RNA Bind-n-Seq; form: RNA; sample: in vitro; tested at: 200 nM; notes: whole 134-nt RNA, ends assumed; with: 150 mM LiCl; baseline: input library; direction: higher = stronger binding; endpoint: log2 enrichment; library: 7-deaza-guanosine replaces G
Target: Fragile X messenger ribonucleoprotein 1, C-terminal low-complexity region (Fmr1, Mus musculus, UniProt P35922)
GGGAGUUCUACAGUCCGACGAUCAGUCCUGUGCUACACAUCGUAUGUACCGAAUCAAACCCAAACCCCCCCAAACCCAAAAAAGUAUUAUGUUACGCCGUUCGGAUCUGCACUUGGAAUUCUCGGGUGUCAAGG: 0.473
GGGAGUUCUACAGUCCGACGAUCAAGUCCUGUGCUACACAUCGUAUGUACCGAAUCGGUUUUUGGAAAAAGGUUUUUGGAAAGUAUUAUGUUACGCCGUUCGGAUCUGCACUUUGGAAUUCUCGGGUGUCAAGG: -3.27
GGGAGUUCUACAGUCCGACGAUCGUCCUGUGCUACACAUCGUAUGUACCGAAUCGGGGAAAGGGGAGGGGAAAAAAAGGGGAAAGUAUUAUGUUACGCCGUUCGGAUCUGCACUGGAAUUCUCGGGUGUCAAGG: 1.4
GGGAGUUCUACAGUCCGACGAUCUGCUGGAGAUGCAAUAUAUGAGGUGGUGAGUCUACAGCGAGAGUCUGACAAGGAGGAACCAGUCACUCCUACUAGUGGAGGGGGUCCAAUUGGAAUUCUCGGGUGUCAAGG: -4.45
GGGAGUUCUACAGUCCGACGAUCCCUGUGCUACACAUCGUAUGUACCGAAUCAAACCCCCCCAAAUUUUUUUAAAUUUUUAAAAAAGUAUUAUGUUACGCCGUUCGGAUCUGCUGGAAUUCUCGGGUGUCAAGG: 1.63
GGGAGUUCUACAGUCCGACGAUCCUCAAGUCCUGUGCUACACAUCGUAUGUACCGAAUCGGGGUUGGUUGGGUUGGAAAGUAUUAUGUUACGCCGUUCGGAUCUGCACUUCCAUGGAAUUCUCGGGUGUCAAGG: -0.547
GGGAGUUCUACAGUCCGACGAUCCAAGUCCUGUGCUACACAUCGUAUGUACCGAAUCGGGUUUUUGGGUGGGUUUGGGAAAGUAUUAUGUUACGCCGUUCGGAUCUGCACUUCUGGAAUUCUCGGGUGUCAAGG: -1.37
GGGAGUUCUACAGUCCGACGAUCGCAGGAAGUAAAAACAAAUGGAAAUGCUUCGGAUAGUGGCAGGGGUGGGGGUUGCUAAGGAAAGGGUGGGAUGGGAGUGGGUAAAGAGUCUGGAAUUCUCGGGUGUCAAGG: 1.49

Sample 3 — method: RNA Bind-n-Seq; form: RNA; sample: in vitro; tested at: not given; baseline: input RNA pool; direction: higher = stronger binding; endpoint: bound/input enrichment
Target: RING finger protein unkempt homolog, zinc fingers 1-6, GST-SBP tag (UNK, Homo sapiens, UniProt Q9C0B0, residues 30-357)
Notes: RNA with constant flanks, human-mouse chimeric sites, ends assumed
Construct (chain): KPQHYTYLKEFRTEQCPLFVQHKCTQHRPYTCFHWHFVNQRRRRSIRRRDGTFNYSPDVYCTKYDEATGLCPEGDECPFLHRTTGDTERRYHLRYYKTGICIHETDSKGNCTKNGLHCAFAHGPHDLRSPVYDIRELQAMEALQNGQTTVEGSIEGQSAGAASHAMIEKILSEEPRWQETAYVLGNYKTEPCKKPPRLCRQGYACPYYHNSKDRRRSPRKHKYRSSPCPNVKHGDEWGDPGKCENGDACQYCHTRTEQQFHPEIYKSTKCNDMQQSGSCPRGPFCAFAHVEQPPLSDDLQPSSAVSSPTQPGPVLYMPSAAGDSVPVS
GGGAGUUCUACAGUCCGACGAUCCACACACUCUUCUGCGGGACCCUCAUCCUGCAGGCCCGGGCCUAUGUGGGACCGCACGUCCUGGCAGUGGUGACCCGGACAGGGUUCUGCACGGCAAAAGGGGGCCUGGUGAGCUCCAUCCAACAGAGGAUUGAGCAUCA: 0.055 ratio
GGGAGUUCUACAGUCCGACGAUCAUAAAGGCCAUGUUGAGUGGUCCAGGUCAGUUUGCUGAGAAUGAAACCAAUGAGGUCAAUUUUAGAGAGAUCCCCUCACAUGUGCUAUCAAAAGUGUGCAUGUAUUUUACCUACAAGGUCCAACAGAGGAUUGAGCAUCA: 0.141 ratio
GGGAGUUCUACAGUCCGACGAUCCAGUCCCCGUGUCCCAGUGCAGGACGAUGUGAACAAAAACUCAAAGCGGCCCUUUCUUUGUAGUUCUUGAUUCUCGAAAUGUGCUAUUGUUUUUAAACUUUUUUUUUUUUUUUUUAAAGACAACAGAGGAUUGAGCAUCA: 0.684 ratio
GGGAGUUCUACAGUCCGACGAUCGUAUUUGUGCGCUCCCCACUCGUGUUUUUAAGUGUAUUUUUAUAAGACAUGUGUAUUUACAAUUGAGCUUUUGUUACAUAAUGCUGAAAUGCUACUGGAGAUUAUGAAAAAUGUUUCAAUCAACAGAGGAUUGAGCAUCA: 0.19 ratio
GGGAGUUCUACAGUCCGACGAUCUAACCACAUCAAGAUGGUUGGGAAGCUGAAGCAGAACUUACUCUUGGCAUGUCUGGUGAUUAGUUCUGUGACCGUGUUUUACCUGGGCCAGCAUGCCAUGGAGUGCCAUCACCGAAUAGACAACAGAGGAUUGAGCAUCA: 0.305 ratio
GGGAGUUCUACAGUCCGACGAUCAACAGAUUGUCUUUAAGCAUUCCAAGCGAGAAUGCUGGGGUGAUCAUUGUUGCCCAUGUGCCUUCUGUAAUAGAUGGAAUGCUGUUCCAUGUUACAUUGAUGUUCUUCUCCAGAAUUGUUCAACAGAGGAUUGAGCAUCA: 0.14 ratio
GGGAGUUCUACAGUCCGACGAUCUAAAUUAGCCAGCACCAUUUCUGUUUCUCCCUGGGCUGCGGAAAGCCAGAAGAUUUUAUCUAGCUUAUACAAGGCUGCUGGUGUUCCCUCUUUUUUUCCACGAGGGUGUUUUUGGCUGCACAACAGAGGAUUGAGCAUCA: 0.864 ratio
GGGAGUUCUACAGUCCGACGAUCGUUGCCAGGUUCCGGUGCCGUUGGGCUCGGUUCUCUCCUGAGCUACGUGUCUCUACGCUCUCAAUCCGCCAUCCAACGGCAGUCAUGCAGGUAAUGCAGUUUGUGGAGCCCAGCCGGCAGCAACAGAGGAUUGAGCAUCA: 0.072 ratio
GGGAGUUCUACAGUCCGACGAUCCUGUGACCACAAGAUCCUACCUGAGUGGCAGCUGAAGCACUUUUCUUCUCCUUGCCUGAACCCCCCCCCACUGCCCCCCCAUCCCCCAGUGUCGGCUAUUCUCUGGUCUCUGCACGGUUCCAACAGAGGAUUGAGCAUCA: 0.642 ratio
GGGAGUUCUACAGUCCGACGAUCUUAAUCCCCUUUACUGCUCCCCCACUUGUCAUGCUGAUAACAAAGUCUUAUAUCCCCAUAUUAGCUUUCACUCAGAUGGCUUAUGGAGCCGGUUUCCUAGCUUUCUUGGGAGGGAUCAGACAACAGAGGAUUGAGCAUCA: 0.209 ratio
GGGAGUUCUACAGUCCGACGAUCAAAGCCCAAGUAUUUUGAAAAAACUCGAACAGAUUUAACAAGGGUAGCCAGCUUGGAGUCUAGCAACUUGCCAAUGUGUUUACCAAUUUUGGGGGCUGUUUUUCUUUUCUUCUUUCAAAUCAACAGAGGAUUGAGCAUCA: 0.464 ratio

Sample 4 — method: RNA Bind-n-Seq; form: RNA; sample: in vitro; tested at: 365 nM; baseline: no-protein control; direction: higher = stronger binding; endpoint: RBNS enrichment (R)
Target: RNA binding protein fox-1 homolog 2, RRM domain, GST-SBP tag (RBFOX2, Homo sapiens, UniProt O43251-10, residues 100-194)
Notes: natural RNA segment, single round, ends assumed
Residues (chain): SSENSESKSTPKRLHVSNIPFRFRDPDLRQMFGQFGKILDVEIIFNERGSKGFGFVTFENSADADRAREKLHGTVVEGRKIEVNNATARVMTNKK
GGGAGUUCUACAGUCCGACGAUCACUCAGGUGGUGAAAAGAGACAGAAGCGUAUUUCUCUCUGAACAUGCUUGGCUCCCCCCCCCCCCCAGUGUCUGCCUUUCUUUACCUGUGAGGCCUGGUUCUGGAUCUGGUGGAAUUCUCGGGUGCCAA: 0.268
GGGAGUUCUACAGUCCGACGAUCUUGGUUUGGUUUCUUCUGUUCUGCACUUUGGAGUCCCUGGGUAUUCCACAUUACAAGUUGAUGUUAUAGGUGGGGGCUGGAAUUGUUGCCCUGGAUGUGGGGACCAAGGUUGGAAUUCUCGGGUGCCAA: 1.75
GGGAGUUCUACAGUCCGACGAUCGGAAGAUGCUAAUCCACACAGAAAUGGCAGCCCUUGGUCUGGAAAGGGAAGGCUGCGGGAAUCAUGUUAAGCAGCUUCAUUAAAUGACAUCAUCACGUGUCUAAACAGCUUGGAAUUCUCGGGUGCCAA: 0.541
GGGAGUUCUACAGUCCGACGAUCAAUACUAUAUUCCGUGUUUUGAGUGACAAGUUUCGAAAAAUAAAAACACUGUAUUUUUAAAAGGGAAAUGCACUUAAAUGAAAACAGUUAUUACAAAAGUUAAGAUUUAAUGGAAUUCUCGGGUGCCAA: 0.452
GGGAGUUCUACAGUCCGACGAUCGAGAUUGUAAAAUGGAAAAAGAAUCGUUUUUUUGUUGACUUUUUGAUGCUGGCACGAGGUUUUUGUCCACUUUUUUCAUAUAUCUGUGUAUAAAAAAAUUGUUGUUUACUUGGAAUUCUCGGGUGCCAA: 0.76
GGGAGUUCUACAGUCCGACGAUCGUUAACAUGUCAGCUGGCCCUCCAGGCCCCCGCCCCCAUCCCGUCCACGUUGCUGUGUCGUGAGGUGCAGCGGGUCACCCUGUGGCCCGUCCUGUGACCCAUAUUUAGCCUGGAAUUCUCGGGUGCCAA: 0.24
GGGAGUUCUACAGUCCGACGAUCCCAUGGGGUUUGGGUGCAGGGGCAUGGCACCCUUUCCUGUCGGGAAGGGAGAGGGGAACUACCCCCCCAGCCUGCCCUCCGCCCCGCCCCAGCCGGCGGACUGUGCUGUUUGGAAUUCUCGGGUGCCAA: 0.278
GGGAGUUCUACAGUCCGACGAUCCGCGCAUGAAUACUUUAAAUGCCAACCUUUUCAAUCAUUUGAUAAAGUCUUUGUAGUCACUCAGUCACCUUUGGUGUCUGUGUGUGUGUGUGUGUGUGUGUGUGUGUGUGUGGAAUUCUCGGGUGCCAA: 0.364
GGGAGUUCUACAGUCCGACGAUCGCUUCCUUCCGAGUCUCCCUAGCCACCCGCACUACUGGACUGUGGAAGGAAGCGUCUACAGAGAACGGUUUCCAACAUCCAUCGCUGCAGCAGACGGUGUCCCUCAGUGAUGGAAUUCUCGGGUGCCAA: 0.268

Excerpt of the above (sample 1):
CCCACCCTCAGGGAGCCTGTGTGCTAG: -0.85 z-score
TTAGGACTGCTATTCCTTTAGTGCTAG: 0.433 z-score
TTAGGTATCCTTATCCTATAGTGCTAG: 0.88 z-score
CAGGGTTTCACTTTAAATTAGTGCTAG: 2.76 z-score
AACTGTCTGCCTTTCAATCCGTGCTAG: 1.26 z-score
